Measured values collected from several papers.
Lines come from different studies, so protocols differ. ± gives the spread as reported. Values after ≈ are worked out from the molar mass of the structure shown.

| SMILES | target | assay | system | conditions | how to read | endpoint | value |
| --- | --- | --- | --- | --- | --- | --- | --- |
| O=C1c2cc(F)ccc2NC12CCCC2 | acetylcholinesterase | – | – | 10 µM | – | remaining activity | 80.2 ± 1.17% |
| CN1C(=O)C2(Cc3ccc(CC45SSC(CO)(C(=O)N4C)N(C)C5=O)cc3)SSC1(CO)C(=O)N2C (racemic) | HIF-1α | reporter gene, HRE luciferase reporter | MDA-MB-231-HRE-Luc | 200 nM, with: deferoxamine 300 µM, hypoxia | – | inhibition | 85% |
| COCOC[C@H]1O[C@H](O[C@H]2[C@H](O[C@@H]3O[C@H](CO)[C@@H](O[C@H]4O[C@@H](CN)[C@@H](O)[C@H](O)[C@H]4N)[C@H]3O)[C@@H](O)[C@H](N)C[C@@H]2N)[C@H](N)[C@@H](O)[C@@H]1O | Mycobacterium smegmatis ribosome A1408G | translation, cell-free luciferase synthesis | – | – | – | IC50 | 5.47 ± 1.24 µg/mL (≈ 8.29 µM) |
| CC[C@H]1CN2CCc3c([nH]c4cccc(OC)c34)[C@H]2C[C@@H]1/C(=C\OC)C(=O)OC | rabbit anti-mitragynine polyclonal IgG | competitive indirect ELISA | – | concentration not given | relative to: mitragynine | cross-reactivity | 8.23% |
| O=C1c2ccccc2N(Cc2cccc(Cl)c2)C12CCCC2 | acetylcholinesterase | – | – | 10 µM | – | remaining activity | 70.2 ± 5.56% |
| Cc1cc2c(cc1Cl)Cc1c(C(=O)NC3C4(C)CCC(C4)C3(C)C)nn(-c3ccc(Cl)cc3Cl)c1-2 (stereo not drawn) | cannabinoid receptor CB2 (human) | agonist, western blot | HL-60 | 0.05 µM, 15 min | relative to: vehicle | ERK1/2 phosphorylation | 46.4 ± 15.6% |
| C=CCO[C@H]1[C@H](O)[C@@H](N)[C@@H](O[C@H]2[C@H](O[C@@H]3O[C@H](CO)[C@@H](O[C@H]4O[C@@H](CN)[C@@H](O)[C@H](O)[C@H]4N)[C@H]3O)[C@@H](O)[C@H](N)C[C@@H]2N)O[C@@H]1CO | ribosome with mitochondrial A site | luciferase translation, cell-free translation | – | – | – | IC50 | 102 ± 9.99 µg/mL (≈ 156 µM) |
| Cc1c(-c2cccc(C3=NCCN3)c2)oc(-c2cccc(C3=NCCN3)c2)c1C | human telomeric G-quadruplex DNA F21T | G-quadruplex stabilisation, FRET melting | – | 1 µM | – | ΔTm | 22.3 °C |
| CC[C@H](C)[C@@H]1NC(=O)[C@H](Cc2ccc(O)cc2)NC(=O)[C@@H](N)CSSC[C@@H](C(=O)N2CCC[C@H]2C(=O)N2CCC[C@H]2C(=O)NCC(N)=O)NC(=O)[C@H](CC(N)=O)NC(=O)[C@H](CCC(N)=O)NC1=O | oxytocin receptor (Callithrix jacchus) | membrane hyperpolarisation | CHO cells | – | – | Emax | 5210 RFU |
| CCCCCCCCC(=O)NCc1ccc(O)c(OC)c1 | mAb 5-D8 | antibody binding, indirect competitive ELISA | – | with: coating antigen hapten 2-OVA | – | IC50 | 0.0595 µg/mL (≈ 0.203 µM) |
| C=C(C)[C@H]1Cc2c(ccc3c2O[C@@H]2COc4cc(OC)c(OC)cc4[C@@H]2C3=O)O1 | mitochondrial complex I | Seahorse respirometry | MC65 Tet-On | 32 nM | – | inhibition | ~50% |
| NC[C@@H]1O[C@H](O[C@H]2[C@@H](O)[C@H](O[C@@H]3[C@@H](O)[C@H](N)C[C@H](N)[C@H]3O[C@H]3O[C@H](CO)[C@@H](OCC(O)CO)[C@H](O)[C@H]3N)O[C@@H]2CO)[C@H](N)[C@@H](O)[C@@H]1O (stereo partly drawn) | Mycobacterium smegmatis ribosome A1408G | translation, cell-free luciferase synthesis | – | – | – | IC50 | 0.87 ± 0.07 µg/mL (≈ 1.26 µM) |
| CC[C@H](C)[C@H](NC(=O)[C@H](Cc1ccccc1)NC(=O)[C@H](CCC(=O)O)NC(=O)[C@H](CCCCNC(=O)COCC(=O)NCCCOCCOCCOCCCNC(=O)CNC(=O)[C@@H]1CCCN1C(=O)CNC(=O)[C@@H]1CCCN1C(=O)CNC(=O)[C@@H]1CCCN1C(=O)[C@H](CCCCNC(=O)CN(CCN(CCN(CC(=O)O)CC(=O)O)CC(=O)O)CC(=O)O)NC(=O)COCC(=O)NCCCOCCOCCOCCCNC(=O)COCC(=O)NCCOc1ccc(Cl)cc1C(=O)NCCc1ccc(S(=O)(=O)NC(=O)NC2CCCCC2)cc1)NC(=O)[C@H](C)NC(=O)[C@H](C)NC(=O)[C@H](CCC(N)=O)NC(=O)CNC(=O)[C@H](CCC(=O)O)NC(=O)[C@H](CC(C)C)NC(=O)[C@H](Cc1ccc(O)cc1)NC(=O)[C@H](CO)NC(=O)[C@H](CO)NC(=O)[C@@H](NC(=O)[C@H](CC(=O)O)NC(=O)[C@H](CO)NC(=O)[C@@H](NC(=O)[C@H](Cc1ccccc1)NC(=O)[C@@H](NC(=O)CNC(=O)[C@H](CCC(=O)O)NC(=O)[C@H](C)NC(=O)[C@@H](N)Cc1c[nH]cn1)[C@@H](C)O)[C@@H](C)O)C(C)C)C(=O)N[C@@H](C)C(=O)N[C@@H](Cc1c[nH]c2ccccc12)C(=O)N[C@@H](CC(C)C)C(=O)N[C@H](C(=O)N[C@@H](CCCNC(=N)N)C(=O)NCC(=O)N[C@@H](CCCNC(=N)N)C(=O)NCC(N)=O)C(C)C | GLP-1R and SUR1 | Eu-ligand saturation binding | βTC3 | 1 h, 37 °C, high-affinity site | – | Kd | 10 nM |
| COc1ccc2c(c1)c1c(C)c3cnccc3c(C)c1n2CCCN1CCN(C)CC1 | R1 A-to-G mutant 41-mer DNA | CD thermal melt | – | – | relative to: no drug | ΔTm | 3 °C |
| C/C=C1/NC(=O)[C@@H](NC(=O)[C@H](CCC(N)=O)NC(=O)[C@@H]2CCCN2C=O)[C@@H](C)OC(=O)[C@H](C(C)C)NC(=O)[C@H](Cc2ccc(O)cc2)N(C)C(=O)[C@H](Cc2ccccc2)N2C(=O)[C@H](CC[C@H]2O)NC1=O | trypsin (pig) | inhibitor | – | 10 µM, 15 min preincubation, pH 7.8, 37 °C, with: BAPNA | – | inhibition | no inhibition |
| CCCCCCCC/C=C\CCCCCCCC(=O)Oc1cccc(SSC[C@H](N)C(=O)N[C@@H](Cc2ccc(O)cc2)C(=O)NCC(=O)N[C@@H](C)C(=O)N[C@@H](CCCCN)C(N)=O)c1 | calpain, rabbit | enzyme activity | rabbit renal proximal tubule cells | 1 µM, 30 min | – | inhibition | ~20% |
| COc1ccc(F)cc1S(=O)(=O)Nc1cnc2c(c1)C(=O)NCCO2 | alkaline phosphatase | inhibitor | C57BL/6J mouse | oral, 1 or 10 mg/kg, 1 to 6 h, potassium salt | relative to: control | plasma ALP activity | decreased |
| NC[C@@H]1O[C@H](O[C@H]2[C@@H](O)[C@H](O[C@@H]3[C@@H](O)[C@H](N)C[C@H](N)[C@H]3O[C@H]3O[C@H](CO)[C@@H](OCCCO)[C@H](O)[C@H]3N)O[C@@H]2CO)[C@H](N)[C@@H](O)[C@@H]1O | ribosome with mitochondrial A site | luciferase translation, cell-free translation | – | – | – | IC50 | > 700 µg/mL |
| CC(C)C[C@H](NC(=O)[C@H](C)NC(=O)[C@H](CCCCN)NC(=O)CCNC(=S)Nc1ccc2c(c1)C(=O)OC21c2ccc(O)cc2Oc2cc(O)ccc21)C(=O)N[C@@H](CCC(=O)O)C(=O)N[C@H](C(=O)N[C@@H](CC(C)C)C(=O)N[C@@H](CCCNC(=N)N)C(=O)N[C@@H](CCCNC(=N)N)C(=O)N[C@H](C(=O)NCC(=O)N[C@@H](CC(=O)O)C(=O)NCC(=O)N[C@H](C(=O)N[C@@]1(C)CCC/C=C\CCC[C@@](C)(C(=O)N[C@H](C(=O)N[C@@H](C)C(=O)N[C@@H](Cc2ccccc2)C(N)=O)[C@@H](C)O)NC(=O)[C@H](Cc2c[nH]cn2)NC(=O)[C@H](CC(N)=O)NC(=O)[C@H](CCCNC(=N)N)NC1=O)C(C)C)C(C)C)[C@@H](C)O | BAK | – | mouse liver mitochondria | concentration not given, 40 min | – | cytochrome c release | no effect |
| CCO[C@H]1[C@H](O)[C@@H](N)[C@@H](O[C@H]2[C@H](O[C@@H]3O[C@H](CO)[C@@H](O[C@H]4O[C@@H](CN)[C@@H](O)[C@H](O)[C@H]4N)[C@H]3O)[C@@H](O)[C@H](N)C[C@@H]2N)O[C@@H]1CO | ribosome with mitochondrial A1555G A site | luciferase translation, cell-free translation | – | – | – | IC50 | 120 ± 45.6 µg/mL (≈ 186 µM) |
| O=C1c2cc(Cl)ccc2N(Cc2ccccc2)C12CCCC2 | acetylcholinesterase | – | – | 10 µM | – | remaining activity | 92.8 ± 8.99% |
| CCCO[C@H]1[C@H](O)[C@@H](N)[C@@H](O[C@H]2[C@H](O[C@@H]3O[C@H](CO)[C@@H](O[C@H]4O[C@@H](CN)[C@@H](O)[C@H](O)[C@H]4N)[C@H]3O)[C@@H](O)[C@H](N)C[C@@H]2N)O[C@@H]1CO | ribosome with mitochondrial A1555G A site | luciferase translation, cell-free translation | – | – | – | IC50 | 152 ± 31.4 µg/mL (≈ 231 µM) |
| CSCC[C@H](NC(=O)[C@H](Cc1ccccc1)NC(=O)CNC(=O)CNC(=O)[C@@H](N)Cc1ccc(O)cc1)C(=O)O | delta opioid receptor (Rana pipiens) | – | – | – | – | EC50 | 180 nM |
| CCCCO[C@H]1[C@H](O)[C@@H](N)[C@@H](O[C@H]2[C@H](O[C@@H]3O[C@H](CO)[C@@H](O[C@H]4O[C@@H](CN)[C@@H](O)[C@H](O)[C@H]4N)[C@H]3O)[C@@H](O)[C@H](N)C[C@@H]2N)O[C@@H]1CO | ribosome with mitochondrial A1555G A site | luciferase translation, cell-free translation | – | – | – | IC50 | 148 ± 30.6 µg/mL (≈ 221 µM) |
| C=C[C@H]1CN2CCc3c([nH]c4cccc(OC)c34)[C@@H]2C[C@@H]1/C(=C\OC)C(=O)OC | rabbit anti-mitragynine polyclonal IgG | competitive indirect ELISA | – | concentration not given | relative to: mitragynine | cross-reactivity | 14% |
| CCCCCO[C@H]1[C@H](O)[C@@H](N)[C@@H](O[C@H]2[C@H](O[C@@H]3O[C@H](CO)[C@@H](O[C@H]4O[C@@H](CN)[C@@H](O)[C@H](O)[C@H]4N)[C@H]3O)[C@@H](O)[C@H](N)C[C@@H]2N)O[C@@H]1CO | Mycobacterium smegmatis ribosome A1408G | translation, cell-free luciferase synthesis | – | – | – | IC50 | 21.7 ± 5.04 µg/mL (≈ 31.7 µM) |
| C[C@H](NC(=O)[C@@H]1CCCN1C(=O)[C@H](Cc1ccc(O)cc1)NC(=O)CNC(=O)[C@H](CO)NC(=O)[C@H](Cc1ccccc1)NC(=O)[C@@H](N)[C@@H](C)O)C(=O)N[C@@H](Cc1ccccc1)C(=O)O | rat mu opioid receptor | outward current, agonist, voltage clamp | supraoptic nucleus neurons, Sprague Dawley rat | holding potential -50 mV | – | EC50 | 76.6 nM |

Excerpt of the above:
| SMILES | target | assay | system | conditions | how to read | endpoint | value |
| --- | --- | --- | --- | --- | --- | --- | --- |
| CC[C@H]1CN2CCc3c([nH]c4cccc(OC)c34)[C@H]2C[C@@H]1/C(=C\OC)C(=O)OC | rabbit anti-mitragynine polyclonal IgG | competitive indirect ELISA | – | concentration not given | relative to: mitragynine | cross-reactivity | 8.23% |
| O=C1c2ccccc2N(Cc2cccc(Cl)c2)C12CCCC2 | acetylcholinesterase | – | – | 10 µM | – | remaining activity | 70.2 ± 5.56% |
| Cc1cc2c(cc1Cl)Cc1c(C(=O)NC3C4(C)CCC(C4)C3(C)C)nn(-c3ccc(Cl)cc3Cl)c1-2 (stereo not drawn) | cannabinoid receptor CB2 (human) | agonist, western blot | HL-60 | 0.05 µM, 15 min | relative to: vehicle | ERK1/2 phosphorylation | 46.4 ± 15.6% |
